Experimental data gathered from unrelated publications.
Values joined by “and” are separate records of one study, mostly repeats; a detail may differ. Numbers after ± are the reported error. Converted amounts (≈) assume the structure as drawn.
EEF2K: Eukaryotic elongation factor 2 kinase (EEF2K, Homo sapiens, UniProt O00418)

Compound | target or system | assay | test system | setting | how to read | quantity | result
O=c1n(CCNCCOS(=O)(=O)c2ccccc2)c(=O)n(S(=O)(=O)c2ccccc2)c(=O)n1S(=O)(=O)c1ccccc1 | – | DPPH scavenging | – | 250 µg/mL | – | inhibition | 51.2%
Cc1cc(Oc2nc(N3CC[C@@H](c4ccncc4)C3)ncc2F)[nH]n1 | Mycobacterium tuberculosis | OD | H37Rv PurF CRISPRi knockdown | 0.5 µM, added: anhydrotetracycline low | – | normalised growth | 1% and 2%
CCc1nc2ccccn2c1C(=O)NCc1ccc2oc(-c3ccc(OC(F)(F)F)cc3)nc2c1 | Mycolicibacterium smegmatis | – | – | – | – | MIC90 | > 100 µM
CC(C)[C@H]1NC(=O)C[C@H]2/C=C/CCSSC[C@@H](NC1=O)C(=O)N[C@H](Cc1cccc3ccccc13)C(=O)NCC(=O)O2 | EEF2K | enzyme activity, inhibitor | – | 10 µM | – | inhibition | 9.6%
NCCCO.O=C(O)C(Cl)Cl | Amaranthus retroflexus | herbicidal activity | – | 15 mg/mL, 21 days, post-emergence greenhouse | – | inhibition | 80%
CC(C)C[C@@H]1NC(=O)[C@H](CC(=O)O)NC(=O)CNC(=O)[C@H](CCCNC(=N)N)NC(=O)[C@H](Cc2ccccc2)NC(=O)[C@H](CCCCNC(=O)CCc2cn(CCCNC(=O)CCC(C(=O)O)N3CCN(CC(=O)O)CCN(CC(=O)O)CCN(CC(=O)O)CC3)nn2)N(C)C(=O)[C@H]2CCCN2C(=O)[C@H](Cc2ccccc2)NC(=O)[C@H](C)NC1=O (some centres unmarked) | – | – | female CB17 SCID mice, tumour and adrenals | intravenous, dose not given, 90 min, 177Lu-labelled | relative to: tumour over adrenals | tissue-to-tissue ratio | 9.5 ± 8
COc1ccccc1-c1n[nH]c2nc(N[C@H]3CC[C@H](NS(=O)(=O)CC(C)C)CC3)ncc12 | – | bead binding, competition bead pull-down, refers to: LMJF.35.3700 | Leishmania donovani extract | 10 µM | relative to: vehicle | relative abundance | 1.07
O=C(NCc1cc(F)cc(F)c1)[C@@]1(O)CCN(c2ccc3[nH]ccc3c2)C1=O | – | – | sample C PDX mouse | dose not given, RTV endpoint 500% | – | median survival time | 42 days
COC1CN([C@H]2CC[C@H]([C@@H](C)n3c(C)c(C(=O)NCc4c(SC)cc(C)[nH]c4=O)c4ccccc43)CC2)C1 | KARPAS-422 | cell growth or viability | – | 8 days | – | GI50 | 33 nM
N=C(N)NCCC[C@@H]1NC(=O)[C@H](CCCCNC(=O)CCC(NC(=S)Nc2ccc(CC3CN(CC(=O)O)CCN(CC(=O)O)CCN(CC(=O)O)CCN3CC(=O)O)cc2)C(=O)NCCCC[C@@H]2NC(=O)[C@@H](Cc3ccc(O)cc3)NC(=O)[C@H](CC(=O)O)NC(=O)CNC(=O)[C@H](CCCNC(=N)N)NC2=O)NC(=O)[C@@H](Cc2ccc(O)cc2)NC(=O)[C@H](CC(=O)O)NC(=O)CNC1=O (some centres unmarked) [scandium-44 labelled] | – | ex vivo γ-counting | female athymic nude mice, U-87 MG xenograft, lung | intravenous, 4 h, added: cRGD 50 mg/kg blocking | – | tissue uptake | 0.058 ± 0.007 %ID/g
FC(F)(F)c1cccc(CNc2nc(NC3CCN(Cc4ccccc4)CC3)c3nc[nH]c3n2)c1 | Cryptococcus neoformans | RNA-seq, refers to: CNAG_06065 | – | 48 µg/mL, 3 h | relative to: untreated | mRNA fold change | 1.86
CN[C@@H]1[C@H](O)[C@H](NC)[C@H]2O[C@]3(O)[C@H](O[C@@H]2[C@H]1O)O[C@H](C)C[C@H]3NC(=O)Cc1ccc(Cl)cn1 | GABA transporter | binding | – | 10 µM | – | inhibition | -14%
CN1C(=O)C(C2C3=C(CC(C)(C)CC3=O)Oc3ccc([N+](=O)[O-])cc32)C(=O)N(C)C1=O (centres unmarked) | 3T3-L1 pre-adipocytes | cell viability, MTT | – | 72 h | – | IC50 | > 100 µg/mL
CCc1nc2ccc(OC(F)(F)F)cn2c1C(=O)NCc1ccc2oc(-c3ccc(OC(F)(F)F)cc3)nc2c1 | Mycolicibacterium smegmatis | – | – | 72 h | – | MIC | > 50 µM
CN(C)[C@H]1C[C@@]23CC[C@@]4(O2)C(=CC[C@]2(C)[C@@H](c5ccc6ccncc6c5)CC[C@H]24)C=C3[C@@H](O)[C@@H]1O | EEF2K | ATP probe labelling, inhibitor, KiNativ profiling | – | 1 µM | – | inhibition | 20.8%
C[C@@H](O)[C@@H]1NC(=O)[C@@H](NC(=O)CCOCCOCCOCCOCCNC(=O)c2ccc(NN)nc2)CSSC[C@@H](C(=O)O)NC(=O)[C@H](Cc2c[nH]cn2)NC(=O)[C@H](CO)NC(=O)[C@H](Cc2ccccc2)NC(=O)[C@@H]2CCCN2C(=O)[C@H](CO)NC(=O)[C@@H]2CCCN2C1=O [technetium-99m labelled] | – | – | mouse HCT-116 xenograft, lung | intravenous, 37 MBq, postmortem after imaging | – | tissue uptake | 0.11 ± 0.03 %ID/g

Compound | target or system | assay | test system | setting | how to read | quantity | result
CC(C)CC(C(=O)N1CC2(CC1C#N)C(=O)Nc1ccccc12)N(C)C(=O)c1cc2c(F)cc(F)c(F)c2[nH]1 (centres unmarked) | Human coronavirus 229E | cytopathic effect | MRC5 | 3.375 µM | – | inhibition | 107%
CC[C@H](C)[C@H](NC(=O)[C@H](CC(=O)O)NC(=O)[C@@H](NC(=O)[C@@H]1CCCN1C(=O)[C@@H](N)CCCNC(=N)N)[C@@H](C)O)C(=O)N[C@@H](CCCCN)C(=O)N[C@H]1CSSC[C@@H]2NC(=O)[C@H](CCCNC(=N)N)NC(=O)CNC(=O)[C@H](CC(N)=O)NC(=O)[C@H]([C@@H](C)O)NC(=O)[C@H](CCCCN)NC(=O)CNC(=O)[C@H](Cc3ccccc3)NC(=O)[C@H](CCCNC(=N)N)NC(=O)[C@H](CO)NC(=O)[C@H](CCCCNC(=O)OCc3cc(OC)c(OC)cc3[N+](=O)[O-])NC(=O)[C@@H]3CSSC[C@@H](C(=O)N[C@@H](Cc4ccccc4)C(=O)O)NC(=O)[C@H](CC(=O)O)NC(=O)[C@H](CSSC[C@H](NC(=O)[C@H](CCC(N)=O)NC(=O)[C@H](Cc4ccc(O)cc4)NC(=O)[C@H](CO)NC(=O)[C@H](CCC(=O)O)NC(=O)[C@H](CO)NC1=O)C(=O)N[C@@H](Cc1ccccc1)C(=O)N1CCC[C@H]1C(=O)N[C@@H](C(C)C)C(=O)N3)NC(=O)[C@H](Cc1ccccc1)NC(=O)CNC(=O)[C@H](CC(N)=O)NC(=O)[C@H](C(C)C)NC2=O | human iPS-derived cardiomyocytes | – | – | 200 nM, after illumination 365 nm | relative to: no illumination | APD70 increase | 1.3 fold
Cc1nc2cc(Br)ccn2c1C(=O)NCc1ccc2oc(-c3ccc(Cl)cc3)nc2c1 | Mycolicibacterium smegmatis | – | – | – | – | MIC90 | > 100 µM
Cc1cc(C(=O)Nc2nc3cccc(C)c3n2[C@H]2CCCCN(C(=O)/C=C/CN(C)C)C2)ccn1 | Trypanosoma brucei | – | 2T1 parental line | concentration not given | – | parasite density | 780000 parasites/mL and 860000 parasites/mL and 782000 parasites/mL
O=C(O)c1ccc(-c2nc(-c3ccccc3Cl)c3sccn23)cc1 | – | DCPIP reduction | K562 cell lysate | 10 µM, 60 min | – | DR activity | 0.0492 OD/min and 0.0472 OD/min
CC(C)(C)C(=O)OCOP(=O)(OCOC(=O)C(C)(C)C)C1CCCN(O)C1=O (centres unmarked) | UO-31 | – | – | – | – | TGI | 6410 nM
CCc1nn(C)c2nc(-c3ccc(C(=O)O)cc3)nc(NCc3ccccc3)c12 | Cryptosporidium parvum | parasite growth, immunofluorescence imaging | HCT-8, Iowa | 667 nM | – | inhibition | 16.3% and 30.6%
CCn1ccc(-c2cc(-c3cnn(C)c3)cc([C@@H](C)NC(=O)c3cc(OCCN(C)C)ccc3C)c2)n1 | African green monkey cells | – | – | 15.62 µM | – | viability | 98.9%
COc1ccccc1-c1n[nH]c2nc(NC3CCN(C(=O)Cc4ccc(F)cc4F)CC3)ncc12 | – | bead binding, competition bead pull-down, refers to: LINJ.33.1410 | Leishmania donovani extract | 10 µM | relative to: vehicle | relative abundance | 0.92
CCN(CC)C(=O)[C@@H]1C=C2c3cccc4c3c(cn4C(=O)c3ccco3)C[C@H]2N(C)C1 | – | magnetometer detection | mouse C57BL/6J male | intraperitoneal, dose not given, lower doses, 5 min blocks | – | time to peak head-twitch response | 10 to 15 min
CC[C@H](C)[C@@H]1NC(=O)[C@H](Cc2c[nH]cn2)NC(=O)[C@H](CC(N)=O)NC(=O)[C@H](CO)NC(=O)[C@H](CCC(N)=O)NC(=O)[C@@H](NC(=O)CN)CSSC[C@@H]2NC(=O)CNC(=O)[C@H](C)NC(=O)[C@H](CC(C)C)NC(=O)[C@@H]3CSSC[C@@H](C(=O)NCC(=O)O)NC(=O)[C@H](Cc4ccccc4)NC(=O)CNC(=O)[C@H](CC(N)=O)NC(=O)[C@@H]4CCCN4C(=O)CNC(=O)[C@H](CSSC[C@H](NC(=O)[C@H](CCCNC(=N)N)NC(=O)[C@H](CC(N)=O)NC(=O)[C@H](Cc4c[nH]cn4)NC(=O)[C@H](CCCCN)NC(=O)[C@H](CC(C)C)NC1=O)C(=O)N[C@@H](CCCCN)C(=O)N[C@@H](CCC(N)=O)C(=O)N[C@@H](CC(=O)O)C(=O)N[C@@H](CO)C(=O)N[C@@H](CC(=O)O)C(=O)N3)NC(=O)[C@H](C(C)C)NC2=O | HEK293, Wnt1-transfected | Wnt signalling | – | – | – | IC50 | 51 ± 21 nM
CC[C@H](C)[C@H](NC(=O)[C@H](C)NC(=O)[C@H](CCC(=O)O)NC(=O)[C@H](CCC(=O)O)NC(=O)[C@H](CC(C)C)NC(=O)[C@H](CCCCN)NC(=O)[C@H](CCCCN)NC(=O)[C@H](CCSC)NC(=O)[C@H](CCC(=O)O)NC(=O)[C@H](Cc1ccc(O)cc1)NC(=O)[C@H](CCC(=O)O)NC(=O)[C@H](CC(C)C)NC(=O)[C@H](CC(=O)O)NC(=O)[C@H](CC(C)C)NC(=O)[C@H](Cc1ccccc1)NC(=O)[C@@H](NC(=O)[C@@H](NC(=O)[C@H](CC(N)=O)NC(=O)[C@@H](NC(=O)[C@H](CCC(N)=O)NC(=O)[C@H](CC(=O)O)NC(=O)[C@H](CC(C)C)NC(=O)[C@@H](N)CO)[C@@H](C)CC)C(C)C)[C@@H](C)O)C(=O)N[C@@H](CCCCN)C(=O)N[C@@H](CCCCN)C(=O)N[C@@H](CC(C)C)C(=O)N[C@@H](CCC(=O)O)C(=O)N[C@@H](CCC(=O)O)C(=O)N[C@@H](CO)C(=O)N[C@@H](Cc1ccc(O)cc1)C(=O)N[C@H](C(=O)N[C@@H](CC(=O)O)C(=O)N[C@@H](CC(C)C)C(=O)N[C@@H](CCCCN)C(=O)N[C@@H](CCC(=O)O)C(=O)N[C@@H](CC(C)C)C(=O)O)[C@@H](C)CC | H9/HIV-1 IIIB and TZM-bl cells | cell-cell fusion, luciferase reporter | – | 36 h, 37 °C | – | IC50 | > 5000 nM
CN(C(=O)c1ccn2ncc(-c3ccc(C(N)=O)cc3)c2c1)c1ccc(C#N)cn1 | Cryptosporidium parvum | – | UGA1 Nluc, IFN-gamma knockout C57BL/6 mice, faeces | oral, 10 mg/kg daily, 384 h post infection, treatment days 11-17 | higher means more parasites | faecal Nluc luminescence | 107 a.u. and 42800 a.u. and 1860 a.u. and 1200 a.u.
COc1ccccc1NC(=O)OC1C(C)C(OC)C=COC2(C)Oc3c(C)c(O)c4c(c3C2=O)C2=NC3(CCN(CC(C)C)CC3)NC2=C(NC(=O)C(C)=CC=CC(C)C(O)C(C)C(O)C1C)C4=O (centres unmarked) | Mycobacteroides abscessus | broth microdilution | ATCC 19977 | – | – | MIC | 0.015 µM (≈ 0.0143 µg/mL)
CC[C@H](C)[C@H](NC(=O)[C@H](CO)NC(=O)[C@H](Cc1ccc(O)cc1)NC(=O)[C@H](Cc1ccc(O)cc1)NC(=O)[C@H](CC(N)=O)NC(=O)CNC(=O)[C@H](CO)NC(=O)[C@H](Cc1ccc(O)cc1)NC(=O)[C@H](CO)NC(=O)[C@H](CO)NC(=O)[C@H](CC(N)=O)NC(=O)COCCOCCNC(=O)CN1CCN(CC(=O)O)CCN(CC(=O)O)CCN(CC(=O)O)CC1)C(=O)N[C@@H](CC(C)C)C(N)=O [copper-64 labelled] | – | dynamic PET | tamoxifen-induced PDAC mouse model, metastases | 4.5 min, CLDN4-expressing tumours | – | maximum metastasis uptake | 22.9 %IA/cc
O=C1NC2(CC2)COc2ncc(F)cc2[C@H]2COCCN2c2ccn3ncc1c3n2 | – | – | Sprague-Dawley rat, female, ovaries | oral, 5 mg/kg/day, 4 weeks dosing, end of recovery | – | organ-to-body weight ratio | 0.036 ± 0.006%
